Measurements pooled from the literature.
Each line is one published result; not all experiments were run side by side. Numbers after ± are the reported error.

`CC(C)n1nc(-c2ccc3oc(N)nc3c2)c2c(N)ncnc21` gave a Cmax of 296 ng/mL (human, plasma; oral, 20 mg once weekly, cycle 1 day 1).
`C[C@H]1CN(C2COC2)CCN1c1ccc(Nc2cc(-c3ccnc(N4CCn5c(cc6c5CC(C)(C)C6)C4=O)c3CO)cn(C)c2=O)nc1` gave a Cmax of 192 ± 64.7 ng/mL (healthy human, both sexes, plasma; oral, 100 mg, added: itraconazole oral solution 200 mg, steady state).
`COc1cc(Nc2ncc3c(n2)-c2ccc(Cl)cc2C(c2c(F)cccc2OC)=NC3)ccc1C(=O)O` has a Cmax of 2910 nM (human, plasma; oral, 50 mg twice daily, day 7, steady state geometric mean).
For `CCCCC1(CCCC)CN(c2ccccc2)c2cc(SC)c(OCC(=O)N[C@@H](C(=O)NCC(=O)O)c3ccccc3)cc2S(=O)(=O)C1`, the Cmax was 0.101 ng/mL (LC-MS/MS; human, plasma; oral, 2.5 mg, single dose, before breakfast).
`CN(C)CC(c1ccc(O)cc1)C1(O)CCCCC1` (centres unmarked) has a Cmax of 421 ng/mL (human, plasma; oral, 225 mg/day, day 15).
For `C[C@@H](c1nc(-c2ccc(C#N)cc2)cs1)[C@](O)(Cn1cncn1)c1cc(F)ccc1F`, the Cmax was 6700 ng/mL (healthy humans, plasma; oral, 200 mg once daily, added: mycophenolate mofetil 1 g single dose).
The Cmax of `CNCc1ccc(-c2[nH]c3cc(F)cc4c3c2CCNC4=O)cc1` is reported as 134 ng/mL (human cancer patients, plasma; intravenous, 4 mg/m2, day 1, added: temozolomide 100).
`N[C@]1(C(=O)O)[C@H]2[C@@H](C[C@@H]1F)[C@@H]2C(=O)O` has a Cmax of 263 ng/mL (human, fed, plasma; oral, 60 mg multiple, day 14).
For `C#C[C@]1(CO)O[C@@H](n2cnc3c(N)nc(F)nc32)C[C@@H]1O`, the Cmax was 647 nM (human, plasma; oral, 30 mg once weekly, week 1).
With `N#Cc1ccnc(N2C(=O)CC[C@H]2C(=O)N(c2cncc(F)c2)[C@H](C(=O)NC2CC(F)(F)C2)c2ccccc2Cl)c1` the Cmax was 5000 ng/mL (human patients, plasma; oral, 500 mg once daily, consolidation cycle 1 day 1, mean, added: chemotherapy).
`CCOC(=O)C1=C[C@@H](OC(CC)CC)[C@H](NC(C)=O)[C@@H](N)C1` gave a Cmax of 32 ± 9 ng/mL (healthy Indian human, plasma; oral, 75 mg single, test capsule fed).
With `C=C(C)[C@@H]1CC[C@]2(NCCN3CCS(=O)(=O)CC3)CC[C@]3(C)[C@H](CC[C@@H]4[C@@]5(C)CC=C(C6=CC[C@@](CF)(C(=O)O)CC6)C(C)(C)[C@@H]5CC[C@]43C)[C@@H]12` the Cmax was 1160 ng/mL (healthy human volunteers, plasma; oral, 200 mg, tablet, high-fat state, mean).
The Cmax of `Cl.NCCc1c[nH]c(=S)n1[C@H]1COc2c(F)cc(F)cc2C1` is reported as 229 ng/mL (mean; human, male, plasma; oral, 200 mg, fasting).
`CCCS(=O)(=O)N[C@H]1C[C@@H](N(C)c2ncnc3[nH]ccc23)C1` has a Cmax of 1430 ng/mL (humans, moderate hepatic impairment; oral, 200 mg single).
For `O=C(CCCCCCC(=O)Nc1ccccc1)NO`, the Cmax was 702 nM (human patients, serum; oral, 100 mg twice daily, day 5, added: FOLFOX).
`CO[C@H]1C[C@@H]2CC[C@@H](C)[C@@](O)(O2)C(=O)C(=O)N2CCCC[C@H]2C(=O)O[C@H]([C@H](C)C[C@@H]2CC[C@@H](O)[C@H](OC)C2)CC(=O)[C@H](C)/C=C(\C)[C@@H](O)[C@@H](OC)C(=O)[C@H](C)C[C@H](C)/C=C/C=C/C=C/1C` has a Cmax of 45.6 ng/mL (human, whole blood; oral, 20 mg, without grapefruit juice).
The Cmax of `COc1cc(F)c(F)c(Nc2ccc(I)cc2F)c1NS(=O)(=O)C1(C[C@H](O)CO)CC1` is reported as 795 ng/mL (human patients, plasma; oral, dose not given, cycle 1 day 15, added: copanlisib).
With `NC(=O)N1CCC(CC(=O)N2CCC([C@H]3c4ncc(Br)cc4CCc4cc(Cl)cc(Br)c43)CC2)CC1` the Cmax was 779 ng/mL (human, plasma; oral, 150 mg twice daily, cycle 1 day 15, added: gemcitabine 750 mg/m2).
The Cmax of `COc1cc(C(=O)O)ccc1NC(=O)[C@@H]1N[C@@H](CC(C)(C)C)[C@](C#N)(c2ccc(Cl)cc2F)[C@H]1c1cccc(Cl)c1F` is reported as 3760 ng/mL (human, plasma; oral, 150 mg, steady state cohort B1.2, added: venetoclax 600 mg).
With `Cc1csc(-c2nnc(Nc3ccc(Oc4ncccc4-c4ccnc(N)n4)cc3)c3ccccc23)c1` the Cmax was 906 to 1670 ng/mL (LC-MS/MS; human, plasma; oral, 40 mg, cycle 1 day 4, dose-expansion cohorts, mean, added: G-CSF).
With `O=C(NC[C@H](O)CO)c1ccncc1Nc1ccc(I)cc1F` the Cmax was 145 ng/mL (human; oral, 45 mg, single dose with FOLFIRI).
The Cmax of `Cc1[nH]c2ccccc2c1CCNCc1ccc(/C=C/C(=O)NO)cc1` is reported as 14 ng/mL (human, plasma; oral, 20 mg, fed, normal breakfast).
`O=CC[C@@H](O)[C@H](O)[C@H](O)CO` gave a Cmax of 744000 ± 289000 nM (HPLC-fluorescence; human patients, plasma; oral, 60 mg/kg/day, cycle 1).
`N#CCNC(=O)c1ccc(-c2ccnc(Nc3ccc(N4CCOCC4=O)cc3)n2)cc1` gave a Cmax of 268 ng/mL (human, plasma; oral, 100 mg momelotinib once daily, cycle 1 day 15, mean, added: trametinib 1.0 mg once daily).
With `COC(=O)N[C@H](C(=O)N1CCC[C@H]1c1nc(-c2ccc3c(c2)O[C@@H](c2ccccc2)n2c-3cc3cc(-c4c[nH]c([C@@H]5CCCN5C(=O)[C@@H](NC(=O)OC)C(C)C)n4)ccc32)c[nH]1)C(C)C` the Cmax was 140 nM (healthy adult humans, plasma; oral, 50 mg, fixed-dose combination with grazoprevir 100 mg, fasted).
`Cc1cc(-c2nnc(N)nc2-c2ccc(F)cc2)cc(Cl)n1` has a Cmax of 1050 ng/mL (human patients, plasma; oral, 150 mg capsule, single dose, arithmetic mean).
For `CC(C)(Sc1ccncc1-c1ccc(C#N)c2ccccc12)C(=O)O`, the Cmax was 7.54 ng/mL (human, plasma; oral, 5 mg, added: febuxostat 80 mg).
The Cmax of `C=CCNC1=C2C[C@@H](C)C[C@H](OC)[C@H](O)[C@@H](C)/C=C(\C)[C@H](OC(N)=O)[C@@H](OC)/C=C\C=C(/C)C(=O)NC(=CC1=O)C2=O` is reported as 10900 nM (human, plasma; intravenous infusion, 350 mg/m^2, day 1, 3 h infusion).
`CN(Cc1nc2c(N)nc(N)nc2[nH]c1=O)c1ccc(C(=O)N[C@@H](CCC(=O)O)C(=O)O)cc1` gave a Cmax of 83.3 ng/mL (human, plasma; oral, 20 mg methotrexate, day 1, alone, arithmetic mean).
`CC[C@@]1(O)C(=O)OCc2c1cc1n(c2=O)Cc2cc3c(CN(C)C)c(O)ccc3nc2-1` gave a Cmax of 16.5 ng/mL (human patients, plasma; oral, 4 mg, geometric mean, added: pazopanib 800 mg).
With `CCn1c(=O)c2c(nc(/C=C/c3ccc(OC)c(OC)c3)n2C)n(CC)c1=O` the Cmax was 97.8 ng/mL (healthy human, plasma; oral, 40 mg single dose, arithmetic mean, added: rifampin 600 mg/day steady state).
The Cmax of `COc1ccnc(C[S+]([O-])c2nc3ccc(OC(F)F)cc3[nH]2)c1OC` (centres unmarked) is reported as 3940 ± 440 ng/mL (human, CYP2C19 intermediate metabolizers, plasma; oral, 40 mg/day, day 1).
`CCc1cc2c(cc1N1CCC(N3CCOCC3)CC1)C(C)(C)c1[nH]c3cc(C#N)ccc3c1C2=O` has a Cmax of 677 ng/mL (LC-MS, noncompartmental; human patients under sample A years, plasma; oral, 600 mg/day, cycle 1 day 21, geometric mean).
`O=C(O)CCCCCCCNC(=O)c1ccccc1O` has a Cmax of 971 nM (human, normal renal function, plasma; concentration not given, day 10, geometric mean, added: oral semaglutide once daily).
The Cmax of `O=C(c1cccnc1-c1ccncc1)N1CCC(O)(Cc2ccccc2)CC1` is reported as 2630 ng/mL (healthy human, plasma; oral, 400 mg once daily, day 1, arithmetic mean).
`CC(=O)O[C@H]1C(=O)[C@@]2(C)[C@H]([C@H](OC(=O)c3ccccc3)[C@]3(O)C[C@H](OC(=O)[C@H](O)[C@@H](NC(=O)c4ccccc4)c4ccccc4)C(C)=C1C3(C)C)[C@]1(OC(C)=O)CO[C@@H]1C[C@@H]2O` gave a Cmax of 1470 ± 680 nM (human patients on any protease inhibitor, plasma; iv, 100 mg/m^2 over 3 h, cycle 1).
The Cmax of `CCCCCCCCCCCCCCC[C@H](O)[C@@H](N)CO` is reported as 23500 nM (human, phase I, plasma; intravenous, 840 mg/m^2, day 1, monotherapy).
`CN1CC[C@H](c2c(O)cc(O)c3c(=O)cc(-c4ccccc4Cl)oc23)[C@H](O)C1` has a Cmax of 2150 nM (HPLC-MS/MS; human, plasma; intravenous, 40 then 40 mg/m^2, 30 min bolus then 4 h infusion, cycle 1, mean, added: irinotecan 180 mg/m^2).
The Cmax of `CC(C)(C(=O)NCC(F)(F)C(F)(F)F)C(=O)N[C@@H]1C(=O)Nc2ccccc2-c2ccccc21` is reported as 241 ng/mL (human, plasma; oral, 20 mg, day 1).
For `C=CC(=O)N1CCC([C@@H]2CCNc3c(C(N)=O)c(-c4ccc(Oc5ccccc5)cc4)nn32)CC1`, the Cmax was 216 ng/mL (human; oral, 160 mg, single dose, mean).
For `NS(=O)(=O)OC[C@@H]1C[C@@H](n2ccc3c(N[C@H]4CCc5ccccc54)ncnc32)C[C@@H]1O`, the Cmax was 121 ng/mL (human; intravenous, 15 mg/m^2, day 1).
`CCc1nc(C(N)=O)c(Nc2ccc(N3CCC(N4CCN(C)CC4)CC3)c(OC)c2)nc1NC1CCOCC1` gave a Cmax of 7.64 ng/mL (human, normal hepatic function, plasma; oral, 10 mg, single dose, fasted, geometric LS mean).
With `CC(C)NC[C@@H](C(=O)N1CCN(c2ncnc3c2[C@H](C)C[C@H]3O)CC1)c1ccc(Cl)cc1` the Cmax was 50.6 ng/mL (human, normal hepatic function, plasma; oral, 100 mg single dose, reference group versus Severe; baseline: NCI classification).
The Cmax of `CS(=O)(=O)CCNCc1ccc(-c2ccc3ncnc(Nc4ccc(OCc5cccc(F)c5)c(Cl)c4)c3c2)o1` is reported as 1890 ng/mL (human, plasma; oral, 1250 mg).
`C[C@@H]1CN(Cc2ncccn2)C[C@H]1c1nc2c(cnn2C2CCOCC2)c(=O)[nH]1` has a Cmax of 59.5 ng/mL (human; oral, 5 mg twice daily, day 7).
`Cc1[nH]c(/C=C2\C(=O)Nc3ccccc32)c(C)c1CCC(=O)O` gave a Cmax of 6460 ± 1910 ng/mL (human patients; oral, 200 mg/m^2 twice daily, after meal, dose 55).
`O=C(/C=C/c1cccc(S(=O)(=O)Nc2ccccc2)c1)NO` gave a Cmax of 25000 ng/mL (human severe liver dysfunction, plasma; intravenous, 400 mg/m^2, 30 min infusion, cycle 1 day -7).
`CNC(=O)c1cccc2cc(Oc3ccnc4cc(OCC5(N)CC5)c(OC)cc34)ccc12` has a Cmax of 293 ± 140 ng/mL (human; oral, 10 mg, single dose, continuous arm).
`CNCc1ccc(-c2[nH]c3cc(F)cc4c3c2CCNC4=O)cc1` has a Cmax of 1150 ng/mL (human patients, plasma; oral, 480 mg twice daily, day 1, arithmetic mean).
`Cc1nc(-c2ccc(OCC(C)C)c(C#N)c2)sc1C(=O)O` has a Cmax of 1740 ng/mL (human, plasma; oral, 80 mg, added: verinurad 10 mg).
With `CN1CC[C@H](c2c(O)cc(O)c3c(=O)cc(-c4ccccc4Cl)oc23)[C@H](O)C1` the Cmax was 1800 ± 400 nM (human advanced solid tumours, plasma; intravenous, 50 flavopiridol, added: oxaliplatin 85 + leucovorin/5-FU).
`CCCNS(=O)(=O)Nc1ncnc(OCCOc2ncc(Br)cn2)c1-c1ccc(Br)cc1` gave a Cmax of 165 ng/mL (human; oral, 10 mg, free combination, geometric mean, added: EU-sourced tadalafil 40 mg).
For `C[C@H]1CNCCCN1S(=O)(=O)c1cccc2cncc(F)c12`, the Cmax was 0.346 ng/mL (human, male, plasma; ocular instillation, 1 drop per eye twice daily, day 8, geometric mean, added: brimonidine fixed-dose combination).

For quick reference, copied from above:
The Cmax of `CNCc1ccc(-c2[nH]c3cc(F)cc4c3c2CCNC4=O)cc1` is reported as 134 ng/mL (human cancer patients, plasma; intravenous, 4 mg/m2, day 1, added: temozolomide 100).
`N[C@]1(C(=O)O)[C@H]2[C@@H](C[C@@H]1F)[C@@H]2C(=O)O` has a Cmax of 263 ng/mL (human, fed, plasma; oral, 60 mg multiple, day 14).
For `C#C[C@]1(CO)O[C@@H](n2cnc3c(N)nc(F)nc32)C[C@@H]1O`, the Cmax was 647 nM (human, plasma; oral, 30 mg once weekly, week 1).
